Results from different studies.
Protocols differ between the studies behind these lines. Numbers after ± are the reported error.

Structure (SMILES) | target or system | assay | test system | conditions | how to read | measurement | result
C[C@H](Nc1ncnc(N)c1C#N)c1c(-c2ccccc2)[nH]c2c(Cl)cccc2c1=O | GCB DLBCL cell lines | cell proliferation, CellTiter-Glo |  | 72 h, median over cell lines |  | IC50 | 4790 nM
O=[N+]([O-])c1cccc(S(=O)(=O)NC[C@@H](O)[C@@H]2CCc3cc(F)ccc3O2)c1 | Aspergillus flavus | poison plate technique |  |  |  | MIC | 15.2 ± 0.8 µg/mL
CNCc1ccc2c(c1)N(C(=O)OCc1c(F)c(F)c(F)c(F)c1F)[C@H](CNC(=N)N)[C@H]2NC(=O)C(=O)Nc1ccc(Cl)c(F)c1 | Human immunodeficiency virus 1 | viral infection, Env pseudovirus | TZM-bl, Du172.17 clade C |  |  | IC80 | 19300 nM
CC(=O)NCCN(CCC(=O)NCCN(CCC(=O)NCCN(CCC(=O)NCCC(N)=O)C(=O)[C@@H](N)CCCCN)C(=O)[C@@H](N)Cc1ccccc1)C(=O)[C@@H](N)Cc1ccccc1 | HIV-1 TAR RNA |  |  | concentration not given, 25 °C |  | binding entropy term TΔS° | -14.2 ± 0.3 kJ/mol
F[P-](F)(F)(F)(F)F.OC(Cn1cncn1)(Cn1cc(-[c-]2cccc2)nn1)c1ccc(F)cc1F.[Co+3].c1cc[cH-]c1 (racemic) | Brugia pahangi | motility, Worminator | adult female | 50 µM, 0 d |  | inhibition | 29%
COc1cc(C(=O)N/N=C/c2cccc3ccccc23)cc(OC)c1OC | P12-Ichikawa | cell growth or viability, MTT |  | 48 h |  | IC50 | 138 nM
C=C1C[C@](OC)([C@H](O)C(=O)NC[C@@H]2C[C@@H](OC)C(C)(C)[C@@H](C[C@@H](COC)OC)O2)O[C@H](C)[C@@H]1C | Renca | cell viability, sulforhodamine B |  | 72 h, 37 °C, without H2O2 |  | IC50 | 0.9 ± 0.1 nM
CC[C@H](C)[C@H](NC(=O)[C@H](C)NC(=O)[C@@H](NC(=O)[C@@H](NC(=O)[C@H](CC(C)C)NC(=O)[C@H](CCCCN)NC(=O)[C@@H](N)CCCCN)[C@@H](C)CC)[C@@H](C)O)C(=O)N[C@@H](CC(C)C)C(=O)N[C@@H](CCCCN)C(=O)N[C@@H](CCCCN)C(=O)N[C@H](C(=O)N[C@@H](CCCNC(=N)N)C(=O)N[C@@H](CCC(=O)O)C(=O)N[C@@H](CCCCN)C(=O)N[C@@H](CCCCN)C(=O)N[C@@H](CCCCN)C(=O)N[C@@H](CCC(=O)O)C(=O)N[C@@H](CS)C(=O)N[C@@H](CC(C)C)C(=O)N[C@H](C(=O)O)C(C)C)[C@@H](C)O | TTX-sensitive sodium channel | open-channel blocker, kinetic model fit | mouse hippocampal CA3 neurons | 200 µM intracellular, membrane potential -30 mV |  | unblocking rate constant | 2460 s⁻¹
COC1CN([C@H]2CC[C@H]([C@@]3(C)Oc4c(Cl)cc(C(=O)NCc5c(SC)cc(C)[nH]c5=O)c(C)c4O3)CC2)C1 |  | RNA-seq, item: MARVELD2 | human, whole blood | dose not given, 24 h | reference: pretreatment baseline | log2 fold change | 1.31
CC(C)(C)C(=O)Nc1ccc2[nH]c(CN3CCC(N(CCCN4CCOCC4)CC4OC(n5cnc6c(N)ncnc65)C(O)C4O)CC3)nc2c1 (stereo not shown) | H460 wild type or R231Q cells | Transwell |  | 2.5 and 5 µM, 72 h | reference: untreated | invading cells | decreased
CC[C@H](C)[C@H](NC(=O)[C@H](Cc1ccccc1)NC(=O)[C@@H](NC(=O)[C@@H](NC(=O)[C@H](CC(C)C)NC(=O)[C@H](CCCCN)NC(=O)[C@@H](N)CCCCN)[C@@H](C)CC)[C@@H](C)O)C(=O)N[C@@H](CC(C)C)C(=O)N[C@@H](CCCNC(=N)N)C(=O)N[C@@H](CCCNC(=N)N)C(=O)N[C@H](C(=O)N[C@@H](CCCNC(=N)N)C(=O)N[C@@H](CCC(=O)O)C(=O)N[C@@H](CCCCN)C(=O)N[C@@H](CCCCN)C(=O)N[C@@H](CCCCN)C(=O)N[C@@H](CCC(=O)O)C(=O)N[C@@H](CS)C(=O)N[C@@H](CC(C)C)C(=O)N[C@H](C(=O)O)C(C)C)[C@@H](C)O | TTX-sensitive sodium channel | open-channel blocker, kinetic model fit | mouse hippocampal CA3 neurons | 200 µM intracellular, membrane potential -30 mV |  | unblocking rate constant | 232 s⁻¹
CNCc1ccc2c(c1)C[C@H](CNC(=N)N)[C@H]2NC(=O)C(=O)Nc1ccc(Cl)c(F)c1 | Human immunodeficiency virus 1 | viral infection, Env pseudovirus | TZM-bl, SC422661.8 clade B |  |  | IC80 | 1140 nM
Oc1c(Cl)cc(Cl)c2cccnc12 | Corynebacterium diphtheriae | agar dilution | NCTC 10356 |  |  | MIC | 37.4 µM
CC[C@H](C)[C@H](NC(=O)[C@H](Cc1ccccc1)NC(=O)[C@@H](NC(=O)[C@@H](NC(=O)[C@H](CC(C)C)NC(=O)[C@H](CCCCN)NC(=O)[C@@H](N)CCCCN)[C@@H](C)CC)[C@@H](C)O)C(=O)N[C@@H](CC(C)C)C(=O)N[C@@H](CCCCN)C(=O)N[C@@H](CCCCN)C(=O)N[C@H](C(=O)N[C@@H](CCCNC(=N)N)C(=O)N[C@@H](CCC(=O)O)C(=O)N[C@@H](CCCCN)C(=O)N[C@@H](CCCCN)C(=O)N[C@@H](CCCCN)C(=O)N[C@@H](CCC(=O)O)C(=O)N[C@@H](CS)C(=O)N[C@@H](CC(C)C)C(=O)N[C@H](C(=O)O)C(C)C)[C@@H](C)O | TTX-sensitive sodium channel | open-channel blocker, kinetic model fit | mouse hippocampal CA3 neurons | 200 µM intracellular, membrane potential -30 mV |  | unblocking rate constant | 449 s⁻¹
CCCOC(=O)N1c2cc(CNC)ccc2[C@H](NC(=O)C(=O)Nc2ccc(Cl)c(F)c2)[C@H]1CNC(=N)N | Human immunodeficiency virus 1 | viral infection, Env pseudovirus | TZM-bl, 6244_13_B5_4576 clade B T/F |  |  | IC80 | 1650 nM
CC(=O)NCCN(CCC(=O)NCCN(CCC(=O)NCCN(CCC(=O)NCCC(N)=O)C(=O)[C@@H](N)CCCNC(=N)N)C(=O)[C@@H](N)CCCCN)C(=O)[C@@H](N)Cc1ccccc1 | HIV-1 TAR RNA |  |  | concentration not given, 25 °C |  | binding entropy term TΔS° | -31.5 ± 1.1 kJ/mol

A few entries again:
Structure (SMILES) | target or system | assay | test system | conditions | how to read | measurement | result
C[C@H](Nc1ncnc(N)c1C#N)c1c(-c2ccccc2)[nH]c2c(Cl)cccc2c1=O | GCB DLBCL cell lines | cell proliferation, CellTiter-Glo |  | 72 h, median over cell lines |  | IC50 | 4790 nM
